Experimental data collected from several papers.
A part holds a random share of what one study measured.

Series 1 — method: RNA Bind-n-Seq; molecule type: RNA; matrix: in vitro; concentration: 365 nM; baseline: no-protein control; reading: higher = stronger binding
Target: RNA binding protein fox-1 homolog 2, RRM domain, GST-SBP tag (RBFOX2, Homo sapiens, UniProt O43251-10, residues 100-194)
Setting: natural RNA segment, single round, ends assumed
Construct (chain): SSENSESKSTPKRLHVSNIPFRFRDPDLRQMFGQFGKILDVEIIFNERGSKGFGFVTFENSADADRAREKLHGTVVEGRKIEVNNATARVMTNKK
| Sequence | RBNS enrichment (R) |
| --- | --- |
| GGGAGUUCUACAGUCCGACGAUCUGGUCUUGAACUCCUCACCUCAGGUGAUCCACAUGACUCUGCCUCCCAAAGUGCUGCCAUUACAGGCGUGAGCCACUAGGCCUGACCUCCCCUUCCCCUUUCCUGCCCCAUGGAAUUCUCGGGUGCCAA | 0.63 |
| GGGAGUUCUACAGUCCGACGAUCAAAAUCUAAAGAUUUUUUCACUUUCUUUGUAUUAUUAUAUAUGAGUAACUUUUGAUACCAGAAUAAAUCUUUCGUGUUUGUCACUAAAGCAUCGGAGUCUCGCUAGUUUCUGGAAUUCUCGGGUGCCAA | 0.852 |
| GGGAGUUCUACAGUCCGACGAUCACAGCUCACAGCCAGCUGUUAGGACCCCACCCUUCUCCCUUUAUUGUGGAGGUGACUCACAGCAGACUGACAGUGGUCAGGCUGAGCUUUCUGCUAAGGUGGUGAGGUCGUGGAAUUCUCGGGUGCCAA | 0.26 |
| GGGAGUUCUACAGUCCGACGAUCGAGGAAGAGGGUAAAAGGGCACAGACUUCCCCAGCUCUGCCCUAAAUAAAAUAACAAUGCUGAUUCAUGACUCAUUGUUUCAUGUACCAAGGGGAGUAGGGCAGGUCAUGUGGAAUUCUCGGGUGCCAA | 0.846 |
| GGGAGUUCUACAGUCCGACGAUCAAUCAGUUUUCUCCUUGAGGCUUGAUCUCCCAUUUCUCUCAUCCCAUUAUAGCUUUUCAUGUAGAUCUGAGGCCCAGGUUACUGUAAUUCUUUUUUUUCCAAUUUCCUUGUGGAAUUCUCGGGUGCCAA | 0.985 |
| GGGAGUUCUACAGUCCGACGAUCGGGCUGGCUCUGAAGCCAAGCCUCUUCUUACUUCACCCGGCUGGGCUCCUCAUUUUUACGGGUAACAGUGAGGCUGGGAAGGGGAACACAGACCAGGAAGCUCGGUGAGUUGGAAUUCUCGGGUGCCAA | 0.325 |
| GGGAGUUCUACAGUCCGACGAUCAGCACUUACAUCUCUAUUGCUUUAACAGAAGGAUACUACUUCAGGAAAAUAUAUGUAAUAUGUAAAAAUAUGAAUGACUAUGUAUUCAAUAAAAAUAAUAUAGCACUGUAUGGAAUUCUCGGGUGCCAA | 0.694 |
| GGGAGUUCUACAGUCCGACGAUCUCCUCUGAAUGAAUAGGAGGAUGGUACCAGCCAUGACAGAAACACCAGCAUUAGGUAUUACUACCUGCCUCUGUCACUAAGAAUUUCUUCUCUUCCAUCUUCUGUGAGUAUGGAAUUCUCGGGUGCCAA | 1.18 |
| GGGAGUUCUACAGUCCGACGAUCCACAGUGUUAGUGCUGGUCAGAGAGACCUCAUCCUGCUCUUUUGUGAUGAACAUAUUCAUGACGCGUGGAAGUCAGUACGAUCAAGUUGUUGACUGUGAUUAGAUCACACUGGAAUUCUCGGGUGCCAA | 0.433 |

Series 2 — method: protein binding microarray; molecule type: double-stranded DNA, one strand shown; matrix: in vitro; concentration: not given; baseline: not given; reading: higher = stronger binding
Target: Histone acetyltransferase KAT6A, winged helix 1, GST fusion (KAT6A, Homo sapiens, UniProt Q92794, residues 1-85)
Setting: 8-mer, flanks averaged, mean of 2 arrays, mostly near background
Target sequence (chain): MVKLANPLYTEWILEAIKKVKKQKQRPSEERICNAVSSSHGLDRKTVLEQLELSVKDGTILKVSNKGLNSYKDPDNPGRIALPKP
| Sequence | E-score |
| --- | --- |
| ACGGATTA | 0.178 |
| ATCTGCTG | -0.192 |
| AAAGCAAG | -0.0141 |
| AAGCGCAA | 0.228 |
| CTAAAAAC | 0.057 |
| CGGCAAAC | 0.333 |
| ATAGGATC | -0.119 |
| CTAACGCC | 0.153 |
| ATAAGACG | 0.0133 |
| TGAAGACA | -0.165 |
| AAGCCGGA | 0.163 |
| GAAAATAA | -0.0748 |
| AGGGCAGG | -0.246 |
| ATATGCAC | -0.0765 |
| ACCCGCAC | 0.218 |
| AGTTCTCG | -0.298 |
| ATTTGGCA | -0.275 |
| CGCGTTTA | 0.261 |
| ACCGGTAT | 0.186 |
| AATAACCT | -0.2 |
| CATGCGGG | 0.187 |

Series 3 — method: protein-binding microarray; molecule type: double-stranded DNA, one strand shown; matrix: in vitro; concentration: 2200 nM top; setting: 60-bp whole probe; added: salmon DNA 0.4 mg/ml; baseline: random background probes; reading: higher = stronger binding; shared flanks, not repeated: GCCTAGCAC … GTCTTGATTCGCTTGACGCTGCTG
Target: Interferon regulatory factor 7, full length, phosphomimetic (IRF7, Homo sapiens, UniProt Q92985, residues 1-503, S471D/S472D/S475D/S476D/S477D/S483D/S484D/S487D)
Target sequence (chain): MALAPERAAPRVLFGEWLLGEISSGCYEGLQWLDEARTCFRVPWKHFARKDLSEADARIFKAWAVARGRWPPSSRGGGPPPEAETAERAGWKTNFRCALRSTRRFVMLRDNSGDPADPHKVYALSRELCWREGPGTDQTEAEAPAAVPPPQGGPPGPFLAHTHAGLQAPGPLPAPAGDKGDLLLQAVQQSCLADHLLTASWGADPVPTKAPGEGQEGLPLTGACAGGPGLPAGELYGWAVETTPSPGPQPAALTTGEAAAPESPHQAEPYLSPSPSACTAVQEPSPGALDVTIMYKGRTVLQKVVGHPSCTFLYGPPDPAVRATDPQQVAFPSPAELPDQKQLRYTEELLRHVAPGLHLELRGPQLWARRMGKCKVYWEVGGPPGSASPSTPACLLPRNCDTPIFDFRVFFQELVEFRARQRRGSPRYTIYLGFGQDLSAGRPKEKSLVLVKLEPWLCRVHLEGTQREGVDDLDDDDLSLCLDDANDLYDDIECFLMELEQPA
| Sequence | fitted relative affinity [z-score] |
| --- | --- |
| TTAGGTTTCGGGACTGGGTGAGTGCTA | 3.34 |
| TTAAGCCCACTATCTAGCCCGTGCTAG | 0.00774 |
| CACAGAACATATTAGTATATGTGCTAG | -0.0603 |
| TCAATCCTATATCTGAAACTGTGCTAG | 0.6 |
| GATGGTTTCCTTCTCCTGACGTGCTAG | 2.79 |
| GACGGTATCCTTTTGCTGACGTGCTAG | 1.09 |
| GACGAACTGGGGACTGGGGACGTGCTA | -0.182 |
| GAATGTGTCTTAAATAGGGCAGTGCTA | -0.365 |
| GACGGTCTCATTCTCCTGACGTGCTAG | 0.93 |
| TTAGGTTTCCTTTCCCTCTAGTGCTAG | 4 |
| GACGGACTGGGGCATCGGGACGTGCTA | -1.16 |
| AACGGTTTCGGTTTCGGGACGTGCTAG | 15.3 |
| AGTTTATTTATTTTTACATTGTGCTAG | 1.11 |
| GACGGACTGGGGACTAGGGACGTGCTA | -1.03 |
| TCAACTCTTCTTTTGCTACTGTGCTAG | 1.29 |
| ATTCTTTGCTCATTTTTCAGGGTGCTA | 1.29 |
| TTAGGTTTTGGGACTGGGTTAGTGCTA | -0.0594 |
| TTACTTCCCAATTGTCTTTTCGTGCTA | 3.11 |
| GACGGTATCGGTTTCGAGACGTGCTAG | 3.32 |
| TTAGGCTTCGACTTTCGGTTAGTGCTA | 5.33 |
| GACGGTCTCCTTTTCCTGCCGTGCTAG | 1.35 |
| GTCGGTATCGGGACTGGGGACGTGCTA | -0.121 |
| TCAGCTTTTTTTTTTTTACTGTGCTAG | 0.979 |
| GACGCTATCCTTATCCTGACGTGCTAG | 1.65 |
| TCATCTGTCCCTCTGTGACTGTGCTAG | 1.56 |

Series 4 — method: protein-binding microarray; molecule type: double-stranded DNA, one strand shown; matrix: in vitro; concentration: 0.8 µM; setting: whole 60-bp probe, no competitor; reading: higher = stronger binding
Target: Centromere-binding protein 1, full length, N-terminal tag (CBF1, Saccharomyces cerevisiae, UniProt P17106, residues 1-351)
Chain of UniProt P17106 (whole entry, looked up): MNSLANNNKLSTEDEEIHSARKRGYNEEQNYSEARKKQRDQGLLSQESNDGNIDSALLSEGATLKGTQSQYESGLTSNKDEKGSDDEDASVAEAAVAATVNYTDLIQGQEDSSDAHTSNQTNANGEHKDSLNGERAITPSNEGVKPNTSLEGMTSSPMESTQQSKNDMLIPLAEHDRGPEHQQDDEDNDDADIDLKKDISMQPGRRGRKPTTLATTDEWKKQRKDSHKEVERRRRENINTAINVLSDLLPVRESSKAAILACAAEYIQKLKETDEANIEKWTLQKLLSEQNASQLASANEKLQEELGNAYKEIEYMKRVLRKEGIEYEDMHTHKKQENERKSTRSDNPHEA
| Sequence | fluorescence intensity [a.u.] |
| --- | --- |
| CCTAACTACTATAGCCACGATAAATAGCTTCGTACAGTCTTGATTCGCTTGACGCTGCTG | 526 |
| GAATCATTAGCGCCTCATGTGAGCAGGCCATTGTAGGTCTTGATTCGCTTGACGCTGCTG | 637 |
| GAATTTCGGCGAGCCCTCGTGTTGCTATGGTAATAGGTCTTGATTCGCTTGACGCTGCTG | 548 |
| CTAACGAGAAGGACAAACATCAGGGACCCATACTTCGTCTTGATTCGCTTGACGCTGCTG | 498 |
| CTACTACCATGAATGCACGTGTCGCTGTCCTCATTCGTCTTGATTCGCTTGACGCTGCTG | 5650 |
| CTAAACAATGCGCTATACGTGCGCAGTAGCTCATTCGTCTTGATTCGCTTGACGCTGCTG | 501 |
| GAATCAAAAAAAAGACGTGAGGTACTGTTTGCTTAGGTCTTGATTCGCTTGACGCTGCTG | 485 |
| GAAATTAAATCAAGGCACGCCAGTGCTGCCTCTTAGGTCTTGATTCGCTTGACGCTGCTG | 485 |
| TGTACGAAGCTATGTGACTTTTGTATAGTAGTTAGGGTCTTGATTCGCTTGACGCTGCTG | 558 |
| CTAACGTTGCTCTTGCACGTGTATTTCGCTGCTTTCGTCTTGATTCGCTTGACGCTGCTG | 3580 |
| CTACATAGTAGTATTCATGTCACTAGCACATTATTCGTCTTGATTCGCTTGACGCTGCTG | 593 |
| GAAACAACGATTGATCACGCAGATGACTAACCGTAGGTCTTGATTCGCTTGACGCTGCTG | 875 |
| CTAATACCTCATTTCCACGATGGTAATAGACGATTCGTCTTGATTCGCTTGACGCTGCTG | 499 |
| CTAAGCTGGAGCTATCTGCTGATTAGTTTTACTTTCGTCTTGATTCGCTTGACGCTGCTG | 506 |
| CTAATACATTGAATGCTGATGTCCATCACACATTTCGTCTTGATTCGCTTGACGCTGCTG | 503 |
| CTATAGGTTCATCTTCTGATGTTATGTCGAGAGTTCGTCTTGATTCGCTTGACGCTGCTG | 545 |
| TGTACGAAGCTATATCAGACATCTATAGTAGTTAGGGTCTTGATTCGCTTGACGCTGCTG | 535 |
| GAACTGATGCGATTCCTCGTGTACCATGATCTGTAGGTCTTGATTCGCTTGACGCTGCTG | 610 |

Excerpt of the above (series 3):
| Sequence | fitted relative affinity [z-score] |
| --- | --- |
| TTAGGTTTCCTTTCCCTCTAGTGCTAG | 4 |
| GACGGACTGGGGCATCGGGACGTGCTA | -1.16 |
| AACGGTTTCGGTTTCGGGACGTGCTAG | 15.3 |
| AGTTTATTTATTTTTACATTGTGCTAG | 1.11 |
| GACGGACTGGGGACTAGGGACGTGCTA | -1.03 |
| TCAACTCTTCTTTTGCTACTGTGCTAG | 1.29 |
| ATTCTTTGCTCATTTTTCAGGGTGCTA | 1.29 |
| TTAGGTTTTGGGACTGGGTTAGTGCTA | -0.0594 |
| TTACTTCCCAATTGTCTTTTCGTGCTA | 3.11 |
| GACGGTATCGGTTTCGAGACGTGCTAG | 3.32 |
| TTAGGCTTCGACTTTCGGTTAGTGCTA | 5.33 |
